# Published values pooled from the literature.
# Numbered parts are unrelated; each lists some results of a single study. Positions count from the first letter of the parent shown.

# Study 1
# Target: RNA binding protein fox-1 homolog 2, RRM domain, GST-SBP tag (RBFOX2, Homo sapiens, UniProt O43251-10, residues 100-194)
# Technique: RNA Bind-n-Seq
# Molecule type: RNA
# Sample: in vitro
# Concentration: 365 nM
# Setting: natural RNA segment, single round, ends assumed
# Relative to: no-protein control
# Reading: higher = stronger binding
# Residues (chain): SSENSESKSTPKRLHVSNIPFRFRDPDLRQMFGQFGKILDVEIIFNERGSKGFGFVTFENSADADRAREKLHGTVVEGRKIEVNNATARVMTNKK
Strand,RBNS enrichment (R)
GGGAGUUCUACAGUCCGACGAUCCCUGGCUCUCGGCAGUGACGUCCUCCCACACCUGGUCACAAGUAGUAGUGGCUGUGCUAUACCCAGCAUCAUGCUUAACAGCGUGUUGCCCUUCUGAGCCUGUUGUACUCUGGAAUUCUCGGGUGCCAA,0.22
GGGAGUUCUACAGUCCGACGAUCGCCCUCACCCGCCCCACUCCCUCCUAACCUAGAGAUUGUUACAGAAGCUGAAAUUGCGUUCUAAGAGGUGAAGUGAUUUUUUUUCUGAAACUCACACAACUAGGAAGUGGUGGAAUUCUCGGGUGCCAA,0.333
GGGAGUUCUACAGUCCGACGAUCGUGCUGGACAAAUUGACUUAAUUCUGUGCAGGCAAACACUUUGAAUCAUAAGGAUUUUUAUUGCCGCUCCAUUCUUACUACUAUUCAUGAUUCAAACAUCUACCCCUGUUUGGAAUUCUCGGGUGCCAA,0.83
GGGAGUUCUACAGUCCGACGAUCUGCCACCGGCAGGGGGCCUUUGCUUACAGGGUCUGCAUAGGUUGUUAUGGAUUUGUGACUUUGGCAUGCAGAAGACAAGAGAGUGGUUAAGUGGAUCUUAUCAUUACUGUUGGAAUUCUCGGGUGCCAA,0.91
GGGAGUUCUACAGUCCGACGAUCUGACUUUAUAUUUAAUACAUCUGCUGAUGCUUCGGGGCAUGUCCUGCCACAGGAUUUGCUAAUGUCUGAUGAUCAUGUUCACAGAGAACAUGGGUGAUUACUUGCAGCCAUGGAAUUCUCGGGUGCCAA,0.338
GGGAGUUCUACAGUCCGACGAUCUCAGACACCAGCAACAGCCUCUUGGGAUGCCCUGAGUUGCUUCCCAUUUCCUCUUUCUAGCCGUCCUUUUCUAGUGUGUGCUCACUCUUCCUAGGAACUUUUAAGACUUCUGGAAUUCUCGGGUGCCAA,0.276
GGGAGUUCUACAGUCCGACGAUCGUUUCGAAUAUGCAGAUGGCCUUGGAGCCUUAAGACAGGUGCCGGGCUGGCUGCAGACAGGGUGGCUGAGGGGAGGGGCAAUCGAGUCCCGAGUCCUUGGCUUAGCAUGGUGGAAUUCUCGGGUGCCAA,7.36
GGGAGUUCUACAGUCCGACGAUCAAUUUUUAUAUAGCUAAUGUAGGAUAAAGUAGAGUGCAUUAAGACAAUAUUGUAACCCCACUCUAGGCACUUGCCUUUAAACUGUCUCAGCCCUUCAGAAGGGCUCAACUUGGAAUUCUCGGGUGCCAA,0.376

# Study 2
# Target: CCNE2, cyclin fold, Cln2 fusion (human)
# Technique: yeast growth competition, sequencing
# Sample: yeast
# Setting: weak parent motif
# Relative to: not given
# Reading: higher = stronger binding
# Starting sequence: CDAN1 docking peptide (human); RGARSQLFPPTEA
Change,normalised enrichment score
RGARAQLFPPTEA [S5A],0.23
RGARSALFPPTEA [Q6A],0.532
RGARSQLAPPTEA [F8A],0.608
AGARSQLFPPTEA [R1A],0.213
RGARSQLFPPTAA [E12A],0.269

# Study 3
# Target: Interferon regulatory factor 3, full length, phosphomimetic (IRF3, Homo sapiens, UniProt Q14653, residues 1-427, S386D/S396D/S398D/S402D/T404D/S405D)
# Technique: protein-binding microarray
# Molecule type: double-stranded DNA, one strand shown
# Sample: in vitro
# Concentration: 2540 nM top
# Setting: 60-bp whole probe
# Together with: salmon DNA 0.4 mg/ml
# Relative to: random background probes
# Reading: higher = stronger binding
# All sequences stand within: GCCTAGCAC … GTCTTGATTCGCTTGACGCTGCTG
# Construct (chain): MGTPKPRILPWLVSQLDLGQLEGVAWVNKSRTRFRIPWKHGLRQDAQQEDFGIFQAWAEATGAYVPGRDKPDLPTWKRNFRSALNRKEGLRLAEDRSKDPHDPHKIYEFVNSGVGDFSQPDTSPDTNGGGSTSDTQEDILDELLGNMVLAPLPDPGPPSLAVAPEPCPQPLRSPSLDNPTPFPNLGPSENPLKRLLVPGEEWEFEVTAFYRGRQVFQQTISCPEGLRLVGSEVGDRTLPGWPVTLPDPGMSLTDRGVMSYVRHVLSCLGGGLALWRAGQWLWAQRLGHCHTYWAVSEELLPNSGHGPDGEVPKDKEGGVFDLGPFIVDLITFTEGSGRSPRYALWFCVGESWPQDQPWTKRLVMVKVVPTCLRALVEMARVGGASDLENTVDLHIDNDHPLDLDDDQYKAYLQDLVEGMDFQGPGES
Strand,fitted relative affinity [z-score]
GACGGTTTGGGGTATCGGGACGTGCTA,0.0269
GACAGTTTCGGTTTCGGGACGTGCTAG,11.5
TCAAGTTTCTCAACCACACTGTGCTAG,1.62
TTAGGTATAGACTATCGGTTAGTGCTA,-0.374
GACGAACTGGGTCTCGAGACGTGCTAG,-0.346
GACGGTATCCTTTTCCTGATGTGCTAG,6.95
GACGCTCTCGGTATCGGGACGTGCTAG,0.863
GACGATATCTGGTTTCGAGACGTGCTA,1.61
TTAGGTATCCTACTGCTTCAGTGCTAG,2.49
TTAGGTTCCCTTTTCCTTGAGTGCTAG,7.3
GAATTTCCCACTTTCACTTCGTGCTAG,3.99
TTAGGTATCCCTTTCCTTTAGTGCTAG,7.48

# Further values, each from its own experiment
Molecule,target,assay,test system,setting,scale,quantity,value
"PhoQ, residues 284 288 289 292 302 303 TGYLSA","PhoP, residues 12 14 15 18 19 GQALL (Escherichia coli, UniProt P23836)","Sort-seq, refers to: YFP reporter",E. coli,"PhoQ-PhoP variant library, together with: 10 µM Mg2+","relative to: high Mg2+ state, higher = stronger signaling",fold induction,11.6

# A few entries again (study 3):
Strand,fitted relative affinity [z-score]
GACGAACTGGGTCTCGAGACGTGCTAG,-0.346
GACGGTATCCTTTTCCTGATGTGCTAG,6.95
GACGCTCTCGGTATCGGGACGTGCTAG,0.863
GACGATATCTGGTTTCGAGACGTGCTA,1.61
